# Experimental data gathered from unrelated publications.
# Each line is one published result; not all experiments were run side by side. ± gives the spread as reported.
# Chain of UniProt P23811 (whole entry, looked up): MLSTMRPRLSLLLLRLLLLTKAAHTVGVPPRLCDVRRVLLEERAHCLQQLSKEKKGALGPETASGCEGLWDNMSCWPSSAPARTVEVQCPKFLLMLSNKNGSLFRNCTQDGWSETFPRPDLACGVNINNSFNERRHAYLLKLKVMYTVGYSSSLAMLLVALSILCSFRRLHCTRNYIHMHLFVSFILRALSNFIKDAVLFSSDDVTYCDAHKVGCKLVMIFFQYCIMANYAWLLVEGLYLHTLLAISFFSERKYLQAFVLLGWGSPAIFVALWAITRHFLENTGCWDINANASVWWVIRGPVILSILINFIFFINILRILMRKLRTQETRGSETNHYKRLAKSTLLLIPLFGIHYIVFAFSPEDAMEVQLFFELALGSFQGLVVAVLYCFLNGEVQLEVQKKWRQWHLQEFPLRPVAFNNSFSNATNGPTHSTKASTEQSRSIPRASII
# Chain of UniProt P08684 (whole entry, looked up): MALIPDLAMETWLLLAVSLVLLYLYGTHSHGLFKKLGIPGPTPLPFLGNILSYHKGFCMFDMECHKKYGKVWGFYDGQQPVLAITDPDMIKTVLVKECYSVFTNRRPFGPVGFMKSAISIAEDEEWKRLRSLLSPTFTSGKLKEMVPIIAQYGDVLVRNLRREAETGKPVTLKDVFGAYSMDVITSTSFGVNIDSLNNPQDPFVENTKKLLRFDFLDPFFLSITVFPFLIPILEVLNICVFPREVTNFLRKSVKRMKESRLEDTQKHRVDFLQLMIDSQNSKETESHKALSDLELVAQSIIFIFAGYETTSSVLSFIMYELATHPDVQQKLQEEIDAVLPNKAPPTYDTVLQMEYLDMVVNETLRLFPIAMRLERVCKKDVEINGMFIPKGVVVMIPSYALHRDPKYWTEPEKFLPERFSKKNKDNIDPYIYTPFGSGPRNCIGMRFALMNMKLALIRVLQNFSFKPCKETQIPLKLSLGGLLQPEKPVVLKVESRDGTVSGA
SMILES,tested on,assay,system,conditions,scale,measurement,value
COc1cc(F)c(C(C)C)cc1C1=C(CN2C(=O)O[C@H](c3cc(C(F)(F)F)cc(C(F)(F)F)c3)[C@@H]2C)CC(C)(C)CC1,,,healthy male subjects,"oral, 25 to 400 mg, single dose",,tolerability,not toxic
COc1ccc2cc(NC(=O)c3cc(-c4cccnc4)nc4ccccc34)ccc2c1,"Cytochrome P450 3A4 (CYP3A4, Homo sapiens, UniProt P08684)","substrate, LC-MS, item: metabolites M1 plus M2",baculosomes,,,Km,6.4 µM
COCCn1c2ccc([N+](=O)[O-])cc2c(=O)n1Cc1ccccc1,Leishmania amazonensis,,"promastigotes, MHOM/BR/77/LTB0016",,relative to: CC50 macrophages over IC50 promastigotes,selectivity index,3
CCCCCCCCCCCCCCCC(=O)N[C@@H](CCC(=O)NCCCC[C@H](NC(=O)[C@H](C)NC(=O)[C@H](C)NC(=O)[C@H](CCC(N)=O)NC(=O)CNC(=O)[C@H](CCC(=O)O)NC(=O)[C@H](CC(C)C)NC(=O)[C@H](Cc1ccc(O)cc1)NC(=O)[C@H](CO)NC(=O)[C@H](CO)NC(=O)[C@@H](NC(=O)[C@H](CC(=O)O)NC(=O)[C@H](CO)NC(=O)[C@@H](NC(=O)[C@H](Cc1ccccc1)NC(=O)[C@@H](NC(=O)CNC(=O)[C@H](CCC(=O)O)NC(=O)[C@H](C)NC(=O)[C@@H](N)Cc1cnc[nH]1)[C@@H](C)O)[C@@H](C)O)C(C)C)C(=O)N[C@@H](CCC(=O)O)C(=O)N[C@@H](Cc1ccccc1)C(=O)N[C@H](C(=O)N[C@@H](C)C(=O)N[C@@H](Cc1c[nH]c2ccccc12)C(=O)N[C@@H](CC(C)C)C(=O)N[C@H](C(=O)N[C@@H](CCCNC(=N)N)C(=O)NCC(=O)N[C@@H](CCCNC(=N)N)C(=O)NCC(=O)O)C(C)C)[C@@H](C)CC)C(=O)O,,,healthy Chinese men,"sc, dose not given",,treatment-related adverse event incidence,22.4%
CC(C)C[C@@H]1NC(=O)[C@@H](Cc2ccccc2)NC(=O)[C@H](CCN)NC(=O)[C@@H](NC(=O)[C@H](CN)NC(=O)[C@@H](NC(=O)C(CCN)CC2CCCCC2)[C@@H](C)O)CCNC(=O)[C@H]([C@@H](C)O)NC(=O)[C@H](CCN)NC(=O)[C@H](CCN)NC1=O (stereo partly shown),,,"CD-1 mouse male, kidney","subcutaneous, 17.2 mg/kg, 4 h",,tissue concentration,430000 ng/g
COCCOCCOCCOc1ccc(/C=C/C2=[N+]3C(=C(c4cc(OC)cc(OC)c4)c4c(C)c(I)c(/C=C/c5ccc(OCCOCCOCCOC)cc5)n4[B-]3(F)F)C(C)=C2I)cc1,,,DMSO,,,Stokes shift,627 cm⁻¹
CCOc1ccc2c(c1)C(C)=CC(C)(C)N2c1cc(OCC)cc2c1NC(C)(C)C=C2C,,LC-MS/MS,"cattle, Holstein, muscle","oral, 50 mg/kg complete feed of ethoxyquin, 42 days, highest value",,residue concentration,5.8 ng/g
CCCC[C@H](NC(C)=O)C(=O)N[C@H]1CC(=O)NCCCC[C@@H](C(=O)N[C@@H](C(=O)N2CCC[C@@H]2C(N)=O)C(C)C)NC(=O)[C@H](Cc2c[nH]c3ccccc23)NC(=O)[C@H](CCCN=C(N)N)NC(=O)[C@@H](Cc2ccc3ccccc3c2)NC(=O)[C@@H]2CCCN2C1=O,,,"healthy dogs, plasma","subcutaneous, 2.25 mg/kg per day, day 5, 2 h post-dose, median",,plasma histamine,16.3 ng/mL
COc1cc(-c2nc3ccccc3s2)cc(CN2CCN(CC(=O)OC(C)C)CCN(CC(=O)OC(C)C)CC2)c1O,,UV-Vis pH titration,,"25 °C, ionic strength 0.1 M NaCl",,pKa3,8.27
COCCOCCOCCOCCC(=O)NCc1cc(CNC(=O)CCOCCOCCOCCOC)cc(-c2cc3cc4nc(c(-c5ccc(CCC(=O)O)cc5)c5[nH]c(cc6nc(c(OC)c2[nH]3)CC6(C)C)cc5-c2cc(CNC(=O)CCOCCOCCOCCOC)cc(CNC(=O)CCOCCOCCOCCOC)c2)CC4(C)C)c1,,,DMF,room temperature,,Qy emission FWHM,25 nm
COc1cc2c(cc1OC)CN(CCCCn1ccc3cc(OCC[18F])ccc31)C2,,,"ICR mice, male, stomach","intravenous, 120 min",,uptake,3.54 ± 0.74 %ID/organ
O=C(CCc1ccc(CNC(C(=O)OC2CCCC2)C2CCCCC2)cn1)NO (stereo not shown),,,"human, plasma","oral, 20 mg once daily, day 7, geometric mean",,AUC(0-t),94.4 ng·h/mL
C[N+](C)(C)C[C@@H](O)CC(=O)O.O=C([O-])[C@@H](O)Cc1ccccc1,,thermogravimetric analysis,,"5% mass loss, nitrogen",,decomposition temperature,82.4 °C
CC(=O)N([O-])CCCCCNC(=O)CCC(=O)N([O-])CCCCCNC(=O)CCC(=O)N([O-])CCCCCN.[89Zr+4],,,"mouse, spleen",24 h,,tracer uptake,0.12 %ID/g
CC(=O)[O-].O.O.O.O.[Co+2].[O-]c1ccc(Br)cc1C=NCCN1CCOCC1,Aspergillus niger,,,20 µL of 100 µM per disc,,inhibition zone diameter,20 mm
O=c1c2cc([N+](=O)[O-])ccc2n(CCN2CCCCC2)n1Cc1ccccc1,Leishmania amazonensis,,"promastigotes, MHOM/BR/77/LTB0016",,relative to: CC50 macrophages over IC50 promastigotes,selectivity index,0.5
C=CC(=O)Nc1cc(Nc2nccc(-c3cn(C4CC4)c4ccccc34)n2)c(OC)cc1NC,,radio-HPLC,"human male, feces","oral, 110 mg, 48 to 96 h, sample holds 20.06% dose",relative to: sample radioactivity,share of radioactivity,0.83%
COCC1CN(C2CCN(c3cc(OC)c(Nc4ncc(Br)c(Nc5ccc6c(c5P(C)(C)=O)OCCO6)n4)cc3C)CC2)C1,,,human patients,"oral, 10 to 240 mg once daily",,"treatment-related Vomit, all grades",37%
CCCC(CCC)NC(=O)c1ccc(OC2OC(C(=O)O)C(O)C(O)C2O)c(O)c1 (stereo not shown),,LC-MS,"Sprague-Dawley rats, pooled sexes, plasma","oral, 200 mg/kg of parent drug, 1 h",relative to: total peak area,metabolite peak area,2.3%
CCCC[C@@H]1NC(=O)[C@@H](NC(=O)[C@H](CCC(=O)O)NC(=O)CNC(=O)CN2CCN(CC(=O)O)CCN(CC(=O)O)CCN(CC(=O)O)CC2)CCCCNC(=O)C[C@@H](C(N)=O)NC(=O)[C@H](C(C)C)NC(=O)[C@@H]2CCCN2C(=O)[C@H](CCCNC(=N)N)NC(=O)CNC(=O)[C@H](Cc2c[nH]c3ccccc23)NC(=O)[C@H](CCCNC(=N)N)NC(=O)[C@@H](Cc2ccccc2)NC(=O)[C@H](Cc2c[nH]cn2)NC(=O)[C@H](CCC(=O)O)NC1=O [gallium-67 labelled],,,"C57 mice, B16/F1 flank melanoma","intravenous, 2 h, together with: blocking peptide 10 µg",relative to: tumour over muscle,tissue ratio,4.11
Cc1cc2c(cc1C1(c3ncc(C(=O)O)cn3)CC1)C(C)(C)CCC2(C)C,,,"Sprague-Dawley rat, male","oral, 100 mg/kg, 2 h, sesame oil vehicle",,blood triglycerides,82 ± 16.5 mg/dL
O=C(O)c1cc2cc(O)ccc2n1Cc1ccc(Cl)c(C(F)(F)F)c1,,,"male Wistar Hannover rat, serum","oral, 500 mg/kg, single dose, peak range",,ALT,70 to 335 U/L
COC(=O)C(c1ccccc1Cl)N1CCC(SCC(=O)c2cccc(OC)c2)C(=CC(=O)O)C1 (stereo not shown),,LC-MS/MS,processed plasma extract,"2 ng/mL, 8 h, room temperature",,measured concentration,2 ± 0.2 ng/mL
COC(=O)C(c1ccccc1Cl)N1CCC(SCC(=O)c2cccc(OC)c2)C(=CC(=O)O)C1 (mixture of isomers),,HPLC-MS/MS,feline EDTA plasma,"100 ng/mL, 12 h, 4 °C, storage stability",,deviation from nominal,7%
O=C(O)C1CN(Cc2ccc(-c3noc(-c4ccc(OCC[18F])c(C(F)(F)F)c4)n3)cc2)C1,,,"rat, brain","intravenous, 5 min",,tracer uptake,0.027 %ID/g
[64Cu+2].c1ccc(CNCc2ccc(CN3CCCN4CCNCCCN(CC4)CC3)cc2)nc1,CXCR4,,"NOD/SCID mouse, U87 and U87-stb-CXCR4 xenografts, lungs","iv, 120 min, ex vivo",,tissue uptake,6.57 ± 2.5 %ID/g
CC(C)(O)c1ncc([S@](N)(=O)=NC(=O)Nc2c3c(cc4c2CCC4)CCC3)s1,,,healthy human,"oral, 10 mg once daily, day 1, capsule formulation, median",,Tmax,1 h
CCCC[C@H](NC(=O)[C@H](CC(C)C)N(C)C(=O)CNC(=O)[C@@H](NC(=O)[C@H](Cc1ccccc1)NC(=O)[C@H](CCCCN)NC(=O)[C@@H](N)CC(=O)O)C(C)C)C(N)=O,,,anaesthetised Sinclair minipigs,"IN, 100 µg/kg",relative to: baseline,heart rate change,5.51 ± 13.9%
CCc1cc(Nc2nc(-c3ccc(-n4cnc(C)c4)c(F)c3)cs2)c(C)cc1C,,,"human, plasma","oral, 100 mg, day 1, multiple dose, geometric mean",,apparent clearance (CL/F),52700 mL/h
C=CC(=O)Nc1cc(Nc2nccc(-c3cn(C4CC4)c4ccccc34)n2)c(OC)cc1N(C)CCNC,,radio-HPLC,"human male, feces","oral, 110 mg, 0 to 48 h, sample holds 45.32% dose",relative to: sample radioactivity,share of radioactivity,12.3%
"CNC(=O)N[C@]1(C)CCC[C@@]2(C)C3CC[C@@]4(C)C[C@]3(CCC21)CC4=O (single isomer, unassigned)",,,processed rat plasma,"400 ng/mL, 24 h, 4 °C, autosampler stability",,measured concentration,445 ± 5.4 ng/mL
[64Cu+2].c1cnc(CNCc2ccc(CN3CCCN4CCNCCCN(CC4)CC3)cc2)nc1,CXCR4,,"NOD/SCID mouse, U87 and U87-stb-CXCR4 xenografts, bladder","iv, 90 min, no blocking dose, ex vivo",,tissue uptake,0.82 ± 0.09 %ID/g
O=C(O)[C@@H]1C[C@@H](O)CN1C(=O)[C@@H]1CCCN1,,potentiometric titration,,"37 °C, MA2 complex, together with: Fe(III)",,log beta,24.2
Cc1nc(C)c(C=[N+]([O-])C(C)(C)C)nc1C,,"Western blot, item: MEF2D","MPTP mouse model, substantia nigra cytosol",30 mg/kg,,increase in protein level,73%
CC(C)C[C@H](NC(=O)CNC(=O)[C@H](CCC(N)=O)NC(=O)[C@H](CC(C)C)NC(=O)[C@H](CC(C)C)NC(=O)[C@H](CCCNC(=N)N)NC(=O)[C@H](CCC(N)=O)NC(=O)[C@H](CC(C)C)NC(=O)[C@H](CCCNC(=N)N)NC(=O)[C@H](C)NC(=O)[C@H](CO)NC(=O)[C@H](CC(=O)O)NC(=O)[C@H](CCC(N)=O)NC(=O)[C@H](CC(C)C)NC(=O)[C@H](CCCNC(=N)N)NC(=O)[C@H](CO)NC(=O)[C@H](CC(C)C)NC(=O)[C@H](CCC(=O)O)NC(=O)[C@H](CO)NC(=O)[C@@H](NC(=O)[C@H](Cc1ccccc1)NC(=O)[C@@H](NC(=O)[C@H](C)NC(=O)[C@H](CC(=O)O)NC(=O)[C@H](CO)NC(=O)[C@@H](N)Cc1c[nH]cn1)[C@@H](C)O)[C@@H](C)O)C(=O)N[C@H](C(N)=O)C(C)C,"Sctr (Rattus norvegicus, UniProt P23811)","cAMP production, agonist",CHO-SecR,"30 min, 37 °C, together with: 1 mM IBMX",,EC50,5.1 ± 0.8 nM
Cn1c(=O)oc2ccc(-c3ccc(CC(C#N)NC(=O)C4CNCCCO4)c(F)c3)cc21 (stereo not shown),,skin exfoliation,human volunteers,"dose not given, parts A and B",relative to: participants,adverse events,< 5%
CCN(CC)c1ccc2c(-c3ccc(S(=O)(=O)NCCNC(=O)CN4CCN(CC(=O)[O-])CCN(CC(=O)O)CCN(CC(=O)[O-])CC4)cc3S(=O)(=O)[O-])c3ccc(=[N+](CC)CC)cc-3oc2c1.[64Cu+2],,,"athymic nude mice, U-87 MG glioma xenograft","intravenous, 2 h post-injection",,tumour uptake,5.68 ± 1.13 %ID/g

# Excerpt of the above:
SMILES,tested on,assay,system,conditions,scale,measurement,value
O=c1c2cc([N+](=O)[O-])ccc2n(CCN2CCCCC2)n1Cc1ccccc1,Leishmania amazonensis,,"promastigotes, MHOM/BR/77/LTB0016",,relative to: CC50 macrophages over IC50 promastigotes,selectivity index,0.5
C=CC(=O)Nc1cc(Nc2nccc(-c3cn(C4CC4)c4ccccc34)n2)c(OC)cc1NC,,radio-HPLC,"human male, feces","oral, 110 mg, 48 to 96 h, sample holds 20.06% dose",relative to: sample radioactivity,share of radioactivity,0.83%
